# Measurements of several laboratories.
# Each numbered part is a random draw from the data of one study; scales do not carry over between parts.

# Set 1 — method: aptamer microarray, sandwich; molecule type: DNA with 2'F-ANA; matrix: in vitro; concentration: 200 nM; with: Cy3 exosite-II aptamer, 400 nM; direction: higher = stronger binding; strand: GGTTGGTGTGGTTGG
# Target: Prothrombin, mature alpha-thrombin (F2, Homo sapiens, UniProt P00734)
# Setting: whole 15-mer aptamer, many near background
Modification,mean fluorescence intensity [a.u.]
2'F-ANA at 1 2 6 7 8 10 14 15,48.7
2'F-ANA at 3 4 5 8 9 11 13,68.5
2'F-ANA at 2 4 7 8 9 10 11 13 14 15,64.5
2'F-ANA at 1 6 9 11 14 15,52.7
2'F-ANA at 2 4 8 10 11 12 13 15,82.7
2'F-ANA at 1 3 5 6 7 8 11 12 13 14 15,52

# Set 2 — method: protein-binding microarray; molecule type: double-stranded DNA, one strand shown; matrix: in vitro; concentration: 250 nM; setting: 60-bp whole probe; with: salmon DNA 0.4 mg/ml; baseline: random background probes; direction: higher = stronger binding; shared flanks, not repeated: GCCTAGCAC … GTCTTGATTCGCTTGACGCTGCTG
# Target: Interferon regulatory factor 7, full length, phosphomimetic (IRF7, Homo sapiens, UniProt Q92985, residues 1-503, S101K/S471D/S472D/S475D/S476D/S477D/S483D/S484D/S487D)
# Target sequence (chain): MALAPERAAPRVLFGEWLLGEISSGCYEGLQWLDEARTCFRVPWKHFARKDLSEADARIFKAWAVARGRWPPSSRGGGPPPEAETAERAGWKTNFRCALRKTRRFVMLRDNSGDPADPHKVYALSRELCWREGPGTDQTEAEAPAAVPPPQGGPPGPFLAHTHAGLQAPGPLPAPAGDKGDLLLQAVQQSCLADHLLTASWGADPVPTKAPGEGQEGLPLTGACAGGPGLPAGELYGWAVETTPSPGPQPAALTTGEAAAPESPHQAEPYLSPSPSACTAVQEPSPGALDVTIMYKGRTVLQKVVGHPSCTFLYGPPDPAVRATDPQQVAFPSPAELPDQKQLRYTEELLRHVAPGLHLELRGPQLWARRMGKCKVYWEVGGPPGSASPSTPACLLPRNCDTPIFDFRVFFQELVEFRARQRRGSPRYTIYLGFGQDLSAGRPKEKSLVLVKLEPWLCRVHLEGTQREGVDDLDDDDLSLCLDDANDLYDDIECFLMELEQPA
Strand,log fluorescence
TGTTTTTCATTTTTTTTCATGTGCTAG,2.92 z-score
GACGGTATCGGTTTCGGGTCGTGCTAG,10 z-score
TTCTTAATGCTTCTGGACCAGTGCTAG,-0.0563 z-score
CTGGTCCTCCTGACTGGGGTGGTGCTA,-0.106 z-score
TTCTGAAGCAGAGCCCTGTTGTGCTAG,-0.505 z-score
TCACCTTTGCCTCTGAGACTGTGCTAG,0.391 z-score

# Set 3 — method: protein binding microarray; molecule type: double-stranded DNA, one strand shown; matrix: in vitro; concentration: not given; baseline: not given; direction: higher = stronger binding
# Target: Histone acetyltransferase KAT6A, both winged helices, GST fusion (KAT6A, Homo sapiens, UniProt Q92794, residues 1-181)
# Setting: 8-mer, flanks averaged, mean of 2 arrays, mostly near background
# Construct (chain): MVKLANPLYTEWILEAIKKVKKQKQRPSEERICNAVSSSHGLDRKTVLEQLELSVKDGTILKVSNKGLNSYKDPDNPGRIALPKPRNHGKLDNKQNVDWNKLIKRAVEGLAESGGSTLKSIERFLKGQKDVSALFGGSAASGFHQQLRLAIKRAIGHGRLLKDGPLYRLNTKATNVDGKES
Strand,E-score
CGTGCCTA,0.00721
ACCATAGA,-0.118
AAATAACC,-0.108
TACGTTAA,0.0941
GCTGTGTA,0.0761
GACAGAAA,-0.0997

# Mixed results
Substance,target,assay,system,setting,scale,endpoint,value
"PhoQ, residues 284 288 289 292 302 303 TTSMTC","PhoP, residues 12 14 15 18 19 SYFRT (Escherichia coli, UniProt P23836)","Sort-seq, item: YFP reporter",E. coli,"PhoQ-PhoP variant library, with: 10 µM Mg2+","baseline: high Mg2+ state, higher = stronger signaling",fold induction,4.43
